Assay results pooled from the literature.
Compare with care: the assays were run in different laboratories. ± gives the spread as reported.

For `C[C@H]1CN(C(=O)CC#N)[C@]12CCN(c1ncnc3[nH]ccc13)C2`, the AUC(0-inf) was 3210 ng·h/mL (healthy Japanese males; oral, 100 mg single dose, mean).
`CC(C)c1nc(N(C)S(C)(=O)=O)nc(-c2ccc(F)cc2)c1/C=C/[C@@H](O)C[C@@H](O)CC(=O)O` has an AUC(0-inf) of 39.9 ng·h/mL (healthy volunteers, plasma; oral, 10 mg single dose, day 1, given alone, BCRP probe).
`COc1ccc2[nH]c([S+]([O-])Cc3ncc(C)c(OC)c3C)nc2c1` (stereo not drawn) gave an AUC(0-inf) of 3880 ± 1320 ng·h/mL (healthy Chinese volunteers, plasma; oral, 20 mg, enteric-coated capsules, CYP2C19 poor metabolizers).
`Oc1ccc([C@@H](O)c2cc(-c3ncnc4cc(N5CCOCC5)ccc34)c(F)cc2Cl)nn1` gave an AUC(0-inf) of 439 ng·h/mL (geometric mean; healthy volunteers, plasma; oral, 100 mg, fasted tablet).
With `CS(=O)(=O)n1cc2c(n1)CN([C@H]1CO[C@H](c3cc(F)ccc3F)[C@@H](N)C1)C2` the AUC(0-inf) was 10.1 µM·h (healthy Japanese men, plasma; oral, 10 mg, fed, single dose).
With `CCc1nc2c(C)cc(N3CCN(CC(=O)N4CC(O)C4)CC3)cn2c1N(C)c1nc(-c2ccc(F)cc2)c(C#N)s1` the AUC(0-inf) was 54600 ng·h/mL (healthy volunteers, plasma; oral, 600 mg once daily multiple doses).
`CC[C@H](C)CCCCC(=O)N[C@@H](CCN)C(=O)N[C@H](C(=O)N[C@@H](CCN)C(=O)N[C@H]1CCNC(=O)[C@H]([C@@H](C)O)NC(=O)[C@H](CCN)NC(=O)[C@H](CCN)NC(=O)[C@H](CC(C)C)NC(=O)[C@@H](Cc2ccccc2)NC(=O)[C@H](CCN)NC1=O)[C@@H](C)O` gave an AUC(0-inf) of 31700 ng·h/mL (ESKD on long-term intermittent haemodialysis, plasma; intravenous infusion, 0.75 mg/kg, geometric least squares mean).
For `CCCCCCCCCCCCCCCC(=O)N[C@@H](CCC(=O)NCCCC[C@@H]1NC(=O)[C@H]([C@@H](C)CC)NC(=O)[C@@H](NC(=O)[C@@H]2CCCN2C(=O)[C@H](Cc2ccccc2)NC(=O)[C@H](Cc2c[nH]cn2)NC(=O)[C@@H](NC(=O)[C@H](CC(=O)O)NC(=O)CC(C)C)[C@@H](C)O)CSSC[C@@H](C(=O)N[C@@H](CCCCN)C(N)=O)NC(=O)CNC(=O)[C@H](CCCCN)NC(=O)[C@H](CO)NC(=O)[C@H](CCCNC(=N)N)NC(=O)[C@@H]2CCCN2C(=O)[C@H](CCC(=O)O)NC(=O)[C@H](Cc2ccccc2)NC1=O)C(=O)O`, the AUC(0-inf) was 47000 ± 18200 ng·h/mL (healthy volunteers, plasma; subcutaneous, 60 mg single, lyophilised formulation).
The AUC(0-inf) of `C=CC(=O)NC1CCN(c2ncc3ncnc(Nc4ccc(Oc5ccc6c(c5)ncn6C)c(C)c4)c3n2)CC1` is reported as 13.4 µM·h (healthy male volunteers, plasma; oral, 60 mg, unlabelled tablet).
`CC(=O)N[C@H]1CC[C@H](NC(=O)CN2CCN(c3nncc(-c4ccc(C)cc4)n3)CC2)CC1` gave an AUC(0-inf) of 4780 ng·h/mL (men aged ≥65 years, plasma; oral, 100 mg single dose, fasted).
`CCCCC1=NC2(CCCC2)C(=O)N1Cc1ccc(-c2ccccc2S(=O)(=O)Nc2noc(C)c2C)c(COCC)c1` gave an AUC(0-inf) of 161000 ng·h/mL (healthy adult volunteers, plasma; oral, 800 mg, single dose, fasted, crushed tablet).
For `CS(=O)(=O)c1ccc([C@@H](O)[C@@H](CF)NC(=O)C(Cl)Cl)cc1`, the AUC(0-inf) was 43500 ± 3440 ng·h/mL (Arbor Acres chickens, plasma; oral, 20 mg/kg, added: quercetin 60 mg/kg pretreatment).
With `CCCS(=O)(=O)N[C@H]1C[C@@H](N(C)c2ncnc3[nH]ccc23)C1` the AUC(0-inf) was 1580 ng·h/mL (healthy volunteers, plasma, total; oral, 100 mg single dose, alone).
With `C[C@@H](N)C1CCN(S(=O)(=O)c2cccc3cnccc23)CC1` the AUC(0-inf) was 15.2 ng·h/mL (healthy volunteers, fasted, plasma; oral, 75 mg).
`Cc1c(C(=O)O)ccc2c3n(nc12)[C@@H]1[C@H](C3)N(CC2CC2)[C@@]2(C(=O)Nc3cc(Cl)ccc32)[C@H]1c1cccc(Cl)c1F` has an AUC(0-inf) of 173 µM·h (cancer patients, plasma; oral, 45 mg every 3 weeks, geometric mean).
`COc1cc(C(=O)NC2CCN(C)CC2)c(F)cc1Nc1ncc(C(F)(F)F)c(Oc2cccc3c2C(=O)N(C)C3)n1` gave an AUC(0-inf) of 86.2 µM·h (cancer patients, plasma; oral, 300 mg single dose, cycle 1 day 1, geometric mean).
With `N[C@@H](CC(=O)N1CCc2c(nc(C(F)(F)F)nc2C(F)(F)F)C1)CN1CC(F)(F)CCC1=O` the AUC(0-inf) was 1410 ± 229 ng·h/mL (healthy Korean adults, fasted, plasma; oral, 50 mg single dose, fixed-dose combination tablet, added: enavogliflozin 0.3 mg).
`O=C(c1cccnc1-c1ccncc1)N1CCC(O)(Cc2ccccc2)CC1` has an AUC(0-inf) of 3920 ng·h/mL (healthy Japanese adults, plasma; oral, 600 mg single dose).
`CCCCC[C@H](O)CC[C@@H]1[C@H]2Cc3cccc(OCC(=O)O)c3C[C@H]2C[C@H]1O` gave an AUC(0-inf) of 0.69 ± 0.15 ng·h/mL (healthy Japanese adults, plasma; inhaled, 36 µg single dose, scaled by body weight/60 kg).
`OC[C@H]1O[C@@H](c2cc(Cc3ccc(C4CC4)cc3)c(Cl)c3c2CCO3)[C@H](O)[C@@H](O)[C@@H]1O` has an AUC(0-inf) of 38.1 ± 11.5 ng·h/mL (healthy Korean adults, fasted, plasma; oral, 0.3 mg single dose, fixed-dose combination tablet, added: co-administered drug 50 mg).
For `Cn1cncc1[C@@](N)(c1ccc(Cl)cc1)c1ccc2c(c1)c(-c1cccc(Cl)c1)cc(=O)n2C`, the AUC(0-inf) was 4830 ng·h/mL (paediatric leukaemia patients; oral, 200 mg/m2, first dose, cycle 1, median).
